Experimental data pooled from the literature.
Parts stem from different laboratories: compare values within a part only.

Sample 1
Target: Phosphate system positive regulatory protein PHO4, full length, GST-tagged (PHO4, Saccharomyces cerevisiae, UniProt P07270, residues 1-312)
Method: competition protein-binding microarray
Molecule type: double-stranded DNA, one strand shown
Matrix: in vitro
Tested at: 2 µM
Notes: whole 60-bp probe, lowest competitor level
Added: Cbf1 competitor, 0.05 µM
Direction: higher = stronger binding
Target sequence (chain): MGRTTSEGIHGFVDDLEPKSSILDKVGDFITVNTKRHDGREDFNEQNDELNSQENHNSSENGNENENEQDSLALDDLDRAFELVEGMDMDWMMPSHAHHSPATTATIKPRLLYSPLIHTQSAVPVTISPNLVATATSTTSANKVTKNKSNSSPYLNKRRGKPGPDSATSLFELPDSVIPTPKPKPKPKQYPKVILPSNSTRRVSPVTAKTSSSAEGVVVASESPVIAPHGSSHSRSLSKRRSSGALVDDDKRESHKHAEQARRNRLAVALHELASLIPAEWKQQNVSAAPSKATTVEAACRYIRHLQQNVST
| Oligonucleotide | fluorescence intensity |
| --- | --- |
| TGACTGAAGACGAATTACGTGCTTTTTTCCAACCTTGTCTTGATTCGCTTGACGCTGCTG | 4810 a.u. |
| ATCTTATTAATTCATGGAAGGCATTGAACTCAACAGGTCTTGATTCGCTTGACGCTGCTG | 4430 a.u. |
| GAATCGCAAGATACCCACGATGAGACTGTTCAGGTTGTCTTGATTCGCTTGACGCTGCTG | 8070 a.u. |
| CATTTCTGTCCATGCCTCGTGCGGAAATGATTGAATGTCTTGATTCGCTTGACGCTGCTG | 14600 a.u. |

Sample 2
Target: Interferon regulatory factor 7, full length, phosphomimetic (IRF7, Homo sapiens, UniProt Q92985, residues 1-503, S471D/S472D/S475D/S476D/S477D/S483D/S484D/S487D)
Method: protein-binding microarray
Molecule type: double-stranded DNA, one strand shown
Matrix: in vitro
Tested at: 2200 nM top
Notes: 60-bp whole probe
Added: salmon DNA 0.4 mg/ml
Relative to: random background probes
Direction: higher = stronger binding
Residues (chain): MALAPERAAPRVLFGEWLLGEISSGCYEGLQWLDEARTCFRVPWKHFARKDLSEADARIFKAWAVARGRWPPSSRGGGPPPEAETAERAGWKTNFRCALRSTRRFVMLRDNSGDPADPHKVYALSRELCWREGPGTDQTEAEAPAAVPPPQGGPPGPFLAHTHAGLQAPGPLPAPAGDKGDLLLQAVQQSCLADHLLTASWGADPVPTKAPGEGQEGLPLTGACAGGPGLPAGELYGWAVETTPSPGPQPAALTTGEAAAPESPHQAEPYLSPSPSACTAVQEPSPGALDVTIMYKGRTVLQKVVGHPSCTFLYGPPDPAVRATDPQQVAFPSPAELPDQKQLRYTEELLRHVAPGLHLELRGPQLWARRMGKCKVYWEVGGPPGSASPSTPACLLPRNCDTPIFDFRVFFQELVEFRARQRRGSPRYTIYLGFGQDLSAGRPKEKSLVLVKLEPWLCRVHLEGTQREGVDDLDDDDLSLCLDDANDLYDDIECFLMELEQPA
| Oligonucleotide | fitted relative affinity [z-score] |
| --- | --- |
| GCCTAGCACTTATATCTCAGTCTCGATTAGTGCTAGGTCTTGATTCGCTTGACGCTGCTG | 1.09 |
| GCCTAGCACGACGGTATCCTTATCCTGATGTGCTAGGTCTTGATTCGCTTGACGCTGCTG | 0.926 |
| GCCTAGCACTTAGGGCTCGGTTTCGGTTAGTGCTAGGTCTTGATTCGCTTGACGCTGCTG | 5.71 |
| GCCTAGCACTTAGGTATCAGGTATCGGTTAGTGCTAGTCTTGATTCGCTTGACGCTGCTG | 0.453 |

Sample 3
Target: Sal-like protein 4, full length isoform A (SALL4, Homo sapiens, UniProt Q9UJQ4, residues 1-1053)
Sequence of UniProt Q9UJQ4 (whole entry, looked up): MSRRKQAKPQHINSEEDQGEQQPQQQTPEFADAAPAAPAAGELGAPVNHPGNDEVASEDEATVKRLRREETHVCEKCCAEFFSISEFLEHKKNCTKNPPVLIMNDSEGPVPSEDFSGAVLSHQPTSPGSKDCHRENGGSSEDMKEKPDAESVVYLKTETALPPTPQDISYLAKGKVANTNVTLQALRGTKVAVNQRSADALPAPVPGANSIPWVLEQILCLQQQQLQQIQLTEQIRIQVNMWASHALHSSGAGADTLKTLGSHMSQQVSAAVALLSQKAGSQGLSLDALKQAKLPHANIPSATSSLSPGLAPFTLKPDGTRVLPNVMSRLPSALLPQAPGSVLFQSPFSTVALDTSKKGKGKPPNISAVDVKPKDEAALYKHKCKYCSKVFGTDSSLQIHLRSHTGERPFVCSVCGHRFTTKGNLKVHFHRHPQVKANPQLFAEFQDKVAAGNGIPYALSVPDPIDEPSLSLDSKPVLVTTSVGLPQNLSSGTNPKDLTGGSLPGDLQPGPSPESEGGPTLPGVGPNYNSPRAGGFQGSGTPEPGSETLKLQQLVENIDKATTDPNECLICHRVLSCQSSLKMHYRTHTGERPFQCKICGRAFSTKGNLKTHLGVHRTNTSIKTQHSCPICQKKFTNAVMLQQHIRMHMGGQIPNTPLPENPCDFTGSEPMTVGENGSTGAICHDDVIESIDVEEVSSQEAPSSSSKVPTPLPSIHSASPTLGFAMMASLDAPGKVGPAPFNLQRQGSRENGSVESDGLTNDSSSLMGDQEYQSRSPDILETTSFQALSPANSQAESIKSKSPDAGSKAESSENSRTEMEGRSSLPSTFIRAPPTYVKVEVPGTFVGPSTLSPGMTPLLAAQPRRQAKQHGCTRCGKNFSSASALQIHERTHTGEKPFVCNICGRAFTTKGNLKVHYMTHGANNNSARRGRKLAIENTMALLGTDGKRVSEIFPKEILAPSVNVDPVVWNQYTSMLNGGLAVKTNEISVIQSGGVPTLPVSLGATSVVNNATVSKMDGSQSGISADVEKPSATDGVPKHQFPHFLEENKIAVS
Method: universal PBM
Molecule type: double-stranded DNA, one strand shown
Matrix: in vitro
Tested at: 600 nM
Notes: 8-mer, flanks averaged, mean of replicates
Direction: higher = stronger binding
| Oligonucleotide | E-score |
| --- | --- |
| AAGTACGT | 0.118 |
| AACATTGA | 0.256 |
| TCGCGAAA | -0.0854 |
| ACTCCTTG | -0.141 |
| CTCTAGAG | -0.142 |
| CAAGCCCG | -0.4 |

Mixed results
| Molecule | target | assay | test system | setting | how to read | measurement | result |
| --- | --- | --- | --- | --- | --- | --- | --- |
| PhoQ, residues 284 288 289 292 302 303 GNNTDL | PhoP, residues 12 14 15 18 19 YHFSH (Escherichia coli, UniProt P23836) | Sort-seq, measured: YFP reporter | E. coli | PhoQ-PhoP variant library, added: 10 µM Mg2+ | relative to: high Mg2+ state, higher = stronger signaling | fold induction | 11.6 |

A few entries again (mixed results):
| Molecule | target | assay | test system | setting | how to read | measurement | result |
| --- | --- | --- | --- | --- | --- | --- | --- |
| PhoQ, residues 284 288 289 292 302 303 GNNTDL | PhoP, residues 12 14 15 18 19 YHFSH (Escherichia coli, UniProt P23836) | Sort-seq, measured: YFP reporter | E. coli | PhoQ-PhoP variant library, added: 10 µM Mg2+ | relative to: high Mg2+ state, higher = stronger signaling | fold induction | 11.6 |
